Published values of several laboratories.
Protocols differ between the studies behind these lines. Values joined by “and” are separate records of one study, mostly repeats; a detail may differ. Numbers after ± are the reported error.
Spike glycoprotein: Spike glycoprotein (Severe acute respiratory syndrome coronavirus 2, UniProt P0DTC2)
rep main protease: Replicase polyprotein 1ab, main protease (rep, Severe acute respiratory syndrome coronavirus 2, UniProt P0DTD1)

| SMILES | tested on | test | system | setting | scale | quantity | result |
| --- | --- | --- | --- | --- | --- | --- | --- |
| Cc1cn([C@H]2C=C[C@@H](COP(=O)(O)OP(=O)(O)OP(=O)(O)O)O2)c(=O)[nH]c1=O | Gag-Pol polyprotein, reverse transcriptase (gag-pol, Human immunodeficiency virus type 1 group M subtype B, UniProt P04585, K653A) | reverse transcriptase activity, inhibitor | HIV-1 |  | baseline: K66A mutant over wild type | fold resistance | ~2 fold |
| C[C@@H]1O[C@@H](O[C@H]2[C@H](O[C@H]3CC[C@@]4(C)[C@@H](CC[C@]5(C)[C@@H]4CC=C4[C@@H]6CC(C)(C)CC[C@]6(C(=O)O[C@@H]6O[C@H](CO[C@@H]7O[C@H](CO)[C@@H](O[C@@H]8O[C@@H](C)[C@H](O)[C@@H](O)[C@H]8O)[C@H](O)[C@H]7O)[C@@H](O)[C@H](O)[C@H]6O)CC[C@]45C)[C@]3(C)CO)OC[C@H](O)[C@@H]2O)[C@H](O)[C@H](O)[C@H]1O | Spike glycoprotein | binding, biolayer interferometry |  |  |  | koff | 0.0132 s⁻¹ |
| CCOP(=S)(OCC)Oc1nc(Cl)c(Cl)cc1Cl | rat CYP2D | bufuralol 1'-hydroxylation, non-competitive inhibitor | rat Sprague-Dawley, liver microsomes | 10 min, pH 7.4, together with: bufuralol 4 to 134 µM |  | Ki | 1450 ± 362 µM |
| O=C1NC(=O)[C@@H](CC(=O)N2C[C@H](CO)C3(C2)CN(C(=O)c2cc4ccc(O)cc4[nH]2)C3)N1 | rep main protease | enzyme activity, inhibitor |  | 5 µM, run 1 |  | inhibition | 14.7% |
| CCc1c(C(=O)C(N)=O)c2c(OCC(=O)O)cccc2n1Cc1ccccc1 | Daboia russelii venom phospholipase A2 | enzyme activity, inhibitor | MP population | 1 µM, together with: NOB substrate | baseline: venom alone | remaining activity | 86.1% and 83.1% and 78.4% |
| O=C(/C=C/c1ccc(O)c(O)c1/C=C/c1ccc(O)c(O)c1)O[C@H](Cc1ccc(O)c(O)c1)C(=O)O | Spike glycoprotein | binding, BLI |  |  |  | kon | 346 M⁻¹ s⁻¹ |
| Nc1cc(OCc2ccc(S(=O)(=O)F)cc2)ccn1 | cya (Bacillus anthracis, UniProt P40136) |  |  |  |  | kinact | 0.0033 s⁻¹ |
| O=C(CCn1cc[nH]c(=O)c1=O)N[C@@H]1CCCC12CN(C(=O)c1cccc3c1C(=O)NC3)C2 | rep main protease | enzyme activity, inhibitor |  | 5 µM |  | inhibition | 14% |
| Nc1ncnc2c([C@@H]3N[C@H](CO)[C@@H](O)[C@H]3O)c[nH]c12 | Yellow fever virus | viral replication | Vero 76, 17D | 296 µM |  | inhibition | 90.5% |
| O=C(NC[C@H](NC(=O)c1cncc2ccccc12)c1ccc2ccccc2c1)c1cn[nH]n1 | rep main protease | enzyme activity, inhibitor |  | 5 µM, mean of runs |  | inhibition | 13.4% |
| CCOC(=O)c1cc2cc(-c3cc(C(=O)NCc4ccc(C(=O)O)cc4)nn3C)ccc2[nH]1 | rep main protease | reporter gene (Gaussia luciferase), inhibitor | HEK293T | 20 µM |  | inhibition | 3.06% |
| CC(=O)O[C@@H]1[C@H](N)[C@@H](OP(=O)(O)O)[C@@]2(C(=O)O)CS[C@@](O)(C(N)=O)[C@@H]1O2 | DNA-directed RNA polymerase subunit beta' / DNA-directed RNA polymerase subunit beta (rpoC/rpoB, Escherichia coli, UniProt P0A8T7+P0A8V2, H936A) | binding to elongation complex, 6-MI fluorescence titration | β′H936A RNAP | riboside RNA 3′-end adenine |  | Kd | 0.94 ± 0.15 µM |
| CN1CCc2nc(C(=O)N[C@@H]3C[C@@H](C(=O)N(C)C)CC[C@@H]3NC(=O)C(=O)Nc3ccc(Cl)cn3)sc2C1 | rep main protease | reporter gene (mKate2), inhibitor |  | 20 µM |  | inhibition | -0.699% |
| CC[C@H](C)[C@H](NC(=O)[C@H](CC(C)C)NC(=O)[C@H](Cc1c[nH]c2ccccc12)NC(=O)[C@H](CCC(N)=O)NC(=O)[C@@H](NC(=O)[C@H](Cc1ccccc1)NC(=O)[C@H](C)NC(=O)[C@H](CCCCNC(=O)COCCOCCNC(=O)COCCOCCNC(=O)CC[C@H](NC(=O)CCCCCCCCCCCCCCCCCCC(=O)O)C(=O)O)NC(=O)[C@H](CCC(N)=O)NC(=O)[C@H](C)NC(=O)[C@@H](NC(=O)[C@H](CCCCN)NC(=O)[C@H](CC(=O)O)NC(=O)[C@H](CC(C)C)NC(=O)C(C)(C)NC(=O)[C@@H](NC(=O)[C@H](CO)NC(=O)[C@H](Cc1ccc(O)cc1)NC(=O)[C@H](CC(=O)O)NC(=O)[C@H](CO)NC(=O)[C@@H](NC(=O)[C@H](Cc1ccccc1)NC(=O)[C@@H](NC(=O)CNC(=O)[C@H](CCC(=O)O)NC(=O)C(C)(C)NC(=O)[C@@H](N)Cc1ccc(O)cc1)[C@@H](C)O)[C@@H](C)O)[C@@H](C)CC)[C@@H](C)CC)C(C)C)C(=O)N[C@@H](C)C(=O)NCC(=O)NCC(=O)N1CCC[C@H]1C(=O)N[C@@H](CO)C(=O)N[C@@H](CO)C(=O)NCC(=O)N[C@@H](C)C(=O)N1CCC[C@H]1C(=O)N1CCC[C@H]1C(=O)N1CCC[C@H]1C(=O)N[C@@H](CO)C(N)=O |  |  | healthy subjects | all MAD doses |  | subjects with vessel puncture bruise | 0% |
| Cn1cnc(Cn2c(=O)[nH]/c(=N\c3cc4cn(C)nc4cc3Cl)n(Cc3cc(F)c(F)cc3F)c2=O)n1 |  |  | human, mild renal impairment, plasma | oral, 375 mg single dose |  | renal clearance | 0.545 mL/min |
| CCOC1=C(O)C(=O)O[C@@H]1[C@@H](O)CO | rep main protease | reporter gene (mKate2), inhibitor |  | 20 µM |  | inhibition | -0.682% |
| O=C(NC[C@H](NC(=O)c1cncc2c1CCNC2=O)c1ccc2ccccc2c1)c1ccon1 | rep main protease | enzyme activity, inhibitor |  | 5 µM, run 2 |  | inhibition | 9.9% |
| CC(CC(=O)C[C@@H](C)[C@H]1CC(=O)[C@@]2(C)C3=C(C(=O)C[C@]12C)[C@@]1(C)CC[C@H](O)C(C)(C)[C@@H]1C[C@@H]3O)C(=O)O (stereo partly shown) | rep main protease | reporter gene (Gaussia luciferase), inhibitor |  | 20 µM |  | inhibition | 0.526% |
| Oc1cc(O)c2c(c1)O[C@H](c1cc(O)c(O)c(O)c1)[C@H](O)C2 | Spike glycoprotein | binding, BLI |  |  |  | kon | 139 M⁻¹ s⁻¹ |
